Published values from different studies.
Each line is one published result; not all experiments were run side by side. ± gives the spread as reported.
Cell line: Vero

SMILES | assay | conditions | CC50
COc1ccc(NC(=O)C2C(=O)C(c3ccccc3)c3ccc4c(c32)C(=O)c2ccccc2C4=O)cc1 (stereo not shown) | cytotoxicity | – | 68.12 ± 0.03 µg/mL
O=C(CN1CCCC1)NNc1ccccc1Sc1cc(Cl)ccc1[N+](=O)[O-] | – | – | > 100 µM
O=C1c2ccccc2C(=O)c2c1ccc1c2C(C(=O)NCc2ccccc2)C(=O)C1c1ccccc1 (stereo not shown) | cytotoxicity | – | 65.6 ± 0.03 µg/mL
NC(=O)c1ccc[n+](-c2ccccc2)c1 | cell growth or viability | 72 h | 73.8 µM
Oc1c(Br)cc(Br)c2cccnc12 | cell growth or viability, CCK-8 | 24 h | > 800 µM
CCOC(=O)CCCCCCNC1c2ccccc2N(C)S(=O)(=O)c2ccsc21 (stereo not shown) | – | – | > 100 µM
CC[C@H](C)[C@H](NC(=O)[C@H](CC(C)C)NC(=O)CNC(=O)[C@H](Cc1c[nH]cn1)NC(=O)[C@@H](NC(=O)[C@H](Cc1ccccc1)NC(=O)[C@H](CC(N)=O)NC(=O)[C@H](Cc1c[nH]c2ccccc12)NC(=O)[C@@H](NC(=O)[C@H](Cc1c[nH]cn1)NC(=O)CNC(=O)[C@H](Cc1c[nH]c2ccccc12)NC(=O)[C@@H](N)CC(C)C)[C@@H](C)CC)C(C)C)C(N)=O | MTT | 48 h | 27.6 µg/mL
O=c1nc(NO)ccn1[C@@H]1O[C@H](CO)[C@@H](O)[C@H]1O | MTS | 4 days | 12.6 µM
CC(C)c1cc2c(cc1O)[C@@]1(C)CCC[C@@](C)(CN3C(=O)c4ccccc4C3=O)[C@@H]1CC2 | cell growth or viability, MTT | 96 h | 9.51 µM
Cc1ccc(NC(=O)C2C(=O)C(c3ccccc3)c3ccc4c(c32)C(=O)c2ccccc2C4=O)cc1 (stereo not shown) | cytotoxicity | – | 91.03 ± 0.05 µg/mL
COc1ccc2c(O[C@@H]3C[C@H]4C(=O)N[C@]5(C(=O)NS(=O)(=O)C6CC6)C[C@H]5/C=C\CCCCN(C)C(=O)[C@@H]4C3)cc(-c3nc(C(C)C)cs3)nc2c1C | cell growth or viability, WST-1 | 18 h | 18.6 µM
O=C1c2ccccc2C(=O)c2c1ccc1c2C(C(=O)Nc2ccccc2Cl)C(=O)C1c1ccccc1 (stereo not shown) | cytotoxicity | – | 78.33 ± 0.02 µg/mL
CCOc1ccc2nc3cc(N)ccc3c(N)c2c1 | cell growth or viability, WST-1 | 18 h | > 40 µM
CC[C@H](C)[C@H](NC(=O)[C@H](CC(C)C)NC(=O)CNC(=O)[C@H](CCCCN)NC(=O)[C@@H](NC(=O)[C@@H](NC(=O)[C@H](CC(N)=O)NC(=O)[C@H](Cc1c[nH]c2ccccc12)NC(=O)[C@@H](NC(=O)[C@H](CCC(=O)O)NC(=O)CNC(=O)[C@H](Cc1c[nH]c2ccccc12)NC(=O)[C@@H](N)CC(C)C)[C@@H](C)CC)[C@@H](C)O)C(C)C)C(N)=O | MTT | 48 h | 68.5 µg/mL
C[C@@H](NCCCc1cccc(C(F)(F)F)c1)c1cccc2ccccc12 | cell growth or viability, WST-1 | 18 h | 21.2 µM
CC(C)c1cc2c(cc1O)[C@@]1(C)CCC[C@@](C)(CN)[C@@H]1CC2 | cell growth or viability, MTT | 96 h | 28.3 µM
C[C@@H](O)[C@H](NC(=O)[C@H](Cc1ccc(O)cc1)NC(=O)[C@@H]1CCCN1C(=O)OCC1c2ccccc2-c2ccccc21)C(=O)N[C@@H](CCCNC(=N)N)C(=O)N[C@@H](CO)C(=O)NCC(=O)N1CCC[C@H]1C(=O)NCC(=O)N[C@@H](Cc1c[nH]c2ccccc12)C(=O)N[C@@H](CO)C(=O)N[C@@H](CO)C(=O)N[C@@H](Cc1c[nH]cn1)C(=O)O | cell growth or viability, MTS | 24 h | > 200 µg/mL
CN1c2ccccc2C(OCCN2CCCCC2)c2cscc2S1(=O)=O (stereo not shown) | – | – | > 100 µM
CC(C)OC(=O)C(C)NP(=O)(OCC1OC(n2ccc(=O)[nH]c2=O)C(F)(Cl)C1O)Oc1ccccc1 (stereo not shown) | MTS | 4 days | > 100 µM
